Measurements collected from several papers.
Lines come from different studies, so protocols differ. ± gives the spread as reported.
niaR K97A: niaR 1-174 K97A (Streptococcus mutans, UniProt Q8DVX8)
B1: bbk32 108-205 (Borrelia burgdorferi, UniProt O50835); chain LKEQSETRKEKIQKQQDEYKGMTQGSLNSLSGESGELEEPIESNEIDLTIDSDLRPKSSLQGIAGSNSISYTDEIEEEDYDQYYLDEYDEEDEEEIRL
B2: PPP2R5A E378R (Homo sapiens, UniProt Q15172-1); chain MSSSSPPAGAASAAISASEKVDGFTRKSVRKAQRQKRSQGSSQFRSQGSQAELHPLPQLKDATSNEQQELFCQKLQQCCILFDFMDSVSDLKSKEIKRATLNELVEYVSTNRGVIVESAYSDIVKMISANIFRTLPPSDNPDFDPEEDEPTLEASWPHIQLVYEFFLRFLESPDFQPSIAKRYIDQKFVQQLLELFDSEDPRERDFLKTVLHRIYGKFLGLRAFIRKQINNIFLRFIYETEHFNGVAELLEILGSIINGFALPLKAEHKQFLMKVLIPMHTAKGLALFHAQLAYCVVQFLEKDTTLTEPVIRGLLKFWPKTCSQKEVMFLGEIEEILDVIEPTQFKKIEEPLFKQISKCVSSSHFQVAERALYFWNNRYILSLIEENIDKILPIMFASLYKISKEHWNPTIVALVYNVLKTLMEMNGKLFDDLTSSYKAERQREKKKELEREELWKKLEELKLKKALEKQNSAYNMHSILSNTSAE
B3: PPP2R5A D205R/E251K (Homo sapiens, UniProt Q15172-1); chain MSSSSPPAGAASAAISASEKVDGFTRKSVRKAQRQKRSQGSSQFRSQGSQAELHPLPQLKDATSNEQQELFCQKLQQCCILFDFMDSVSDLKSKEIKRATLNELVEYVSTNRGVIVESAYSDIVKMISANIFRTLPPSDNPDFDPEEDEPTLEASWPHIQLVYEFFLRFLESPDFQPSIAKRYIDQKFVQQLLELFDSEDPRERRFLKTVLHRIYGKFLGLRAFIRKQINNIFLRFIYETEHFNGVAELLKILGSIINGFALPLKAEHKQFLMKVLIPMHTAKGLALFHAQLAYCVVQFLEKDTTLTEPVIRGLLKFWPKTCSQKEVMFLGEIEEILDVIEPTQFKKIEEPLFKQISKCVSSSHFQVAERALYFWNNEYILSLIEENIDKILPIMFASLYKISKEHWNPTIVALVYNVLKTLMEMNGKLFDDLTSSYKAERQREKKKELEREELWKKLEELKLKKALEKQNSAYNMHSILSNTSAE
B4: PPP2R5A E106R (Homo sapiens, UniProt Q15172-1); chain MSSSSPPAGAASAAISASEKVDGFTRKSVRKAQRQKRSQGSSQFRSQGSQAELHPLPQLKDATSNEQQELFCQKLQQCCILFDFMDSVSDLKSKEIKRATLNELVRYVSTNRGVIVESAYSDIVKMISANIFRTLPPSDNPDFDPEEDEPTLEASWPHIQLVYEFFLRFLESPDFQPSIAKRYIDQKFVQQLLELFDSEDPRERDFLKTVLHRIYGKFLGLRAFIRKQINNIFLRFIYETEHFNGVAELLEILGSIINGFALPLKAEHKQFLMKVLIPMHTAKGLALFHAQLAYCVVQFLEKDTTLTEPVIRGLLKFWPKTCSQKEVMFLGEIEEILDVIEPTQFKKIEEPLFKQISKCVSSSHFQVAERALYFWNNEYILSLIEENIDKILPIMFASLYKISKEHWNPTIVALVYNVLKTLMEMNGKLFDDLTSSYKAERQREKKKELEREELWKKLEELKLKKALEKQNSAYNMHSILSNTSAE
B5: Lqq V toxin, rhodamine on Lys60 (Leiurus quinquestriatus quinquestriatus, UniProt P01481); ends and bridges not checked; also: 125I-labelled, site not given here; rhodamine on Lys60; chain LKDGYIVDDKNCTFFCGRNAYCNDECKKKGGESGYCQWASPYGNACWCYKLPDRVSIKEK(6‑carboxytetramethylrhodamine acetamide)GRCN
Chain of UniProt P04775 (whole entry, looked up): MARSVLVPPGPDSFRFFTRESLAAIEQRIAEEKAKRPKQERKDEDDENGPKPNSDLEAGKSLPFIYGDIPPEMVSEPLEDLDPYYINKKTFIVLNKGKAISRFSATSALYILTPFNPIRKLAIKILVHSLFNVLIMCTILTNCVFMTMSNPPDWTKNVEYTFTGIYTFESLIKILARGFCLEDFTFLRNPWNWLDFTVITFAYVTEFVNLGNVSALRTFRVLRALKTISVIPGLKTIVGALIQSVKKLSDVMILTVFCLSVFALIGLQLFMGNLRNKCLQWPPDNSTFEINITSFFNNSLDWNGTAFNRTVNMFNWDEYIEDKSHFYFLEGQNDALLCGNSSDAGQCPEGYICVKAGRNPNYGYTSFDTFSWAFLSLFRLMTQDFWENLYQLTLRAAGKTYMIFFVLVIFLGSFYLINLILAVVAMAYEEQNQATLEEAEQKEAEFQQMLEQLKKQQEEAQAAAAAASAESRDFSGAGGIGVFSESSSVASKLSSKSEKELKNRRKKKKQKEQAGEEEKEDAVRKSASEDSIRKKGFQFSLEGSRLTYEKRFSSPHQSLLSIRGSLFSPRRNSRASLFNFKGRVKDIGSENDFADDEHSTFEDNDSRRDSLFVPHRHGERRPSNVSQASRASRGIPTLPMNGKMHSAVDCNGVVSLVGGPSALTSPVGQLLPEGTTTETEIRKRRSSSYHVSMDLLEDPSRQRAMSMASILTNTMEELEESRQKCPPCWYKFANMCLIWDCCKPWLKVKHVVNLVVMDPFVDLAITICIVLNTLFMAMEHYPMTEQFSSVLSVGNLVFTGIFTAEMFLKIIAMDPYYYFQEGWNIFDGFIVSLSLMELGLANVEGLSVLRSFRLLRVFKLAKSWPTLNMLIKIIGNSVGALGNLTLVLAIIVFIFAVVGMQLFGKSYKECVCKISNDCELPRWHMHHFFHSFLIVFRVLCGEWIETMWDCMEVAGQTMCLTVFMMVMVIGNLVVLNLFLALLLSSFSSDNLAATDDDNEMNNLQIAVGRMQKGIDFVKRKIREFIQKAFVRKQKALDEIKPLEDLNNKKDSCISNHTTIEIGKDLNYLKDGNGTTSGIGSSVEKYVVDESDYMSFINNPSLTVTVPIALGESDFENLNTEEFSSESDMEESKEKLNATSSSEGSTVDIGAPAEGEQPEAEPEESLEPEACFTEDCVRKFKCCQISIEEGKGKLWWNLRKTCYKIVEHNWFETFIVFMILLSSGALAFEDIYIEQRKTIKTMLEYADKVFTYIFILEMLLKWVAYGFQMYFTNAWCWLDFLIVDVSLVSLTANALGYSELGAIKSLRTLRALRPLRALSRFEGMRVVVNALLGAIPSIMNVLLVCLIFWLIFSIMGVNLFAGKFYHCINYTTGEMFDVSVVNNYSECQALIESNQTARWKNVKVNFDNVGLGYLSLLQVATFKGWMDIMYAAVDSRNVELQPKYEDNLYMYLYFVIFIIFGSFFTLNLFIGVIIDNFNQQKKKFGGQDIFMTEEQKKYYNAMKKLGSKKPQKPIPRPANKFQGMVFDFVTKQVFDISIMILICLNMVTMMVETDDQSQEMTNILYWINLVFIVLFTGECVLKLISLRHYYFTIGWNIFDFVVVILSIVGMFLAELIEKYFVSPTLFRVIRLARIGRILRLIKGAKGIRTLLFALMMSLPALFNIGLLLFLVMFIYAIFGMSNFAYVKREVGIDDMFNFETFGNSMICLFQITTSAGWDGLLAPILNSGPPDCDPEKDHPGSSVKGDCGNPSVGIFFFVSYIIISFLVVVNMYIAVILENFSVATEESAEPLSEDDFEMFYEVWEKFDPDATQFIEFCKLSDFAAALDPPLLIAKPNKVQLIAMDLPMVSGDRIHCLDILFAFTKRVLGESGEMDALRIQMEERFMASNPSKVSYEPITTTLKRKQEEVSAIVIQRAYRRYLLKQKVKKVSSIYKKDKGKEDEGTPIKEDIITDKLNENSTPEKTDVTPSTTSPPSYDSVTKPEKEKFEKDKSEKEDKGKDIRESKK
Chain of UniProt P08603 (whole entry, unmodified, looked up): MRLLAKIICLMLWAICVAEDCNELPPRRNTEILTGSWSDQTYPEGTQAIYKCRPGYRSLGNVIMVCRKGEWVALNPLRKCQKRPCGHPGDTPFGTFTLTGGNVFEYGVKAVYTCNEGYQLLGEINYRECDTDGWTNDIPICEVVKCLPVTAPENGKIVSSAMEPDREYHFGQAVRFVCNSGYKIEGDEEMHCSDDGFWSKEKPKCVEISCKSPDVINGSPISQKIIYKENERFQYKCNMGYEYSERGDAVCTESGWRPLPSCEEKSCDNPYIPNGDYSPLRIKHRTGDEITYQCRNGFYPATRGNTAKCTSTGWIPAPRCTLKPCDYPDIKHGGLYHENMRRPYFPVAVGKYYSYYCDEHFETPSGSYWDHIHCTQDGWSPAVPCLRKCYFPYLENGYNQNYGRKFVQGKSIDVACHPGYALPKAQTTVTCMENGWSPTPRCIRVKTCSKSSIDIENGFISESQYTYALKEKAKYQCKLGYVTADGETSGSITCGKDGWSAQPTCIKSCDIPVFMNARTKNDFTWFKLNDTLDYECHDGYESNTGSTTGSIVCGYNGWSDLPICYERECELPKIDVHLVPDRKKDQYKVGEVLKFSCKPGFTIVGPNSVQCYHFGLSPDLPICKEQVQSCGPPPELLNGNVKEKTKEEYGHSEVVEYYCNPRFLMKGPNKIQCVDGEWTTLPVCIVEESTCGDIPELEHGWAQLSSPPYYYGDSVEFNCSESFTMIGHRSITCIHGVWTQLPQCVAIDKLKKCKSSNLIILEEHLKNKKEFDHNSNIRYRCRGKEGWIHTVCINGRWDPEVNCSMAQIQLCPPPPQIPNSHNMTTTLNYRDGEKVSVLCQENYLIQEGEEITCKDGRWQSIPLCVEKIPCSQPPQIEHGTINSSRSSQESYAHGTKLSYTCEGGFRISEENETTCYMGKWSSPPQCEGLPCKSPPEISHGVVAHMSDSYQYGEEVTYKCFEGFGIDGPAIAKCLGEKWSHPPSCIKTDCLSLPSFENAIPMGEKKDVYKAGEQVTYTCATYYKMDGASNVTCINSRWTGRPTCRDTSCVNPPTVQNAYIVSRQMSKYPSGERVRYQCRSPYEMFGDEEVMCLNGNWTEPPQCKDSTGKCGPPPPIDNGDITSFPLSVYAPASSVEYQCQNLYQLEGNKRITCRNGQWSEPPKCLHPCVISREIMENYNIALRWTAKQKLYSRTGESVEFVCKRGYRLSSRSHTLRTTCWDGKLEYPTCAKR
Chain of UniProt P04737 (whole entry, looked up): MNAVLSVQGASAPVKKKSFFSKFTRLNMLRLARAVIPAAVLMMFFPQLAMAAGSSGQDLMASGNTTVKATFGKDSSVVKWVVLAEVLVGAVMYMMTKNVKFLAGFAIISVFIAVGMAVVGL
Chain of UniProt P00747 (whole entry, looked up): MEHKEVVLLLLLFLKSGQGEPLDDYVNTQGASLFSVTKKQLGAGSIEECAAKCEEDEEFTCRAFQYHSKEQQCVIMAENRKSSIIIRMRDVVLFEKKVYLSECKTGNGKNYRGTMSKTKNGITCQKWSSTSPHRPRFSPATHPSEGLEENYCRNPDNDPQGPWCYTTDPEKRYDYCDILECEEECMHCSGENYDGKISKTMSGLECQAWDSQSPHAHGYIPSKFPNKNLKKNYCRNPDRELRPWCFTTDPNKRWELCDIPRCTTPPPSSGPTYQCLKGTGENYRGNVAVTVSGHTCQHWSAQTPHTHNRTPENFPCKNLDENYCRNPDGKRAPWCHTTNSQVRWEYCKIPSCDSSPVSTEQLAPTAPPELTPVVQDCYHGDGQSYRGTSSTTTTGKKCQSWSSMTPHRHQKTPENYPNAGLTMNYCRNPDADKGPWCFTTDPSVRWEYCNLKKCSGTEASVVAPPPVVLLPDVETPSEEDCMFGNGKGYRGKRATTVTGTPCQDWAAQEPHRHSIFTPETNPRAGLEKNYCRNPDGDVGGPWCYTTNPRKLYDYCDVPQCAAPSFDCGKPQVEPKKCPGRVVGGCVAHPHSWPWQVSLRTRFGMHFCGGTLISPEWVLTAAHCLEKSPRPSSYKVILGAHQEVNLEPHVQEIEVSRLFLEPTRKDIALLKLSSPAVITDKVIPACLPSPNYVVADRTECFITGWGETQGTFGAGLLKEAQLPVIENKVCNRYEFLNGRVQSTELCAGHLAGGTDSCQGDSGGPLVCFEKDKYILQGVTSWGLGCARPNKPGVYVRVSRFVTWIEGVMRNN

| Substance | target or system | test | system | conditions | how to read | quantity | value |
| --- | --- | --- | --- | --- | --- | --- | --- |
| B1 (bbk32 108-205) | FN1 mature (Bos taurus, UniProt P07589) | ELISA |  |  |  | Kd | 14.6 nM |
| B2 (PPP2R5A E378R) | Vif/CBFB/ELOB/ELOC R15E (HIV-1/Homo sapiens) | pull-down |  |  |  | binding | binds |
| GTCTTTAATAATTAAACTAGTGTCTTGACAGATGTAAACAACAGGTATAAAC (dsDNA) | niaR K97A | EMSA | double-stranded DNA, one strand shown |  |  | binding | no binding |
| B3 (PPP2R5A D205R/E251K) | Vif/CBFB/ELOB/ELOC R33D (HIV-1/Homo sapiens) | pull-down |  |  |  | binding | binds |
| GPC fragment S4Y (lymphocytic choriomeningitis virus) | H2-D1/B2m (Mus musculus) | flow cytometry | RMA-S |  |  | half-life | > 1 h |
| cdiA fragment H178A (Escherichia coli) | traA (Escherichia coli, UniProt P04737) | conjugation |  | 1 µM | reference: mock-treated cells, higher = more mating | mating efficiency | 2.5 fold |
| APRITFGGP |  | T cell recognition, HLA-B*07:02 tetramer staining | peptide, CD8+ T cells, COVID-19 convalescent human subjects, HLA-B*07:02 | dose not given, 5 subjects tested |  | tetramer-reactive CD8+ T cell count | 1 |
| cbpA fragment (Streptococcus pneumoniae) | CFH 508-567 E523A (Homo sapiens, UniProt P08603) | ITC |  |  |  | ΔH | -15.5 ± 0.6 kcal/mol |
| Dengue virus E protein virion, UV-inactivated (Dengue virus serotype 2) | PLG 376-562 (Homo sapiens, UniProt P00747) | BLI |  |  |  | Kd | 8.8 nM |
| GPC fragment M9C (lymphocytic choriomeningitis virus) | H2-D1/B2m (Mus musculus) | flow cytometry | RMA-S |  |  | half-life | > 1 h |
| B4 (PPP2R5A E106R) | Vif/CBFB/ELOB/ELOC (HIV-1/Homo sapiens) | pull-down |  |  |  | binding | binds |
| EIKESVQTF |  | T cell recognition, HLA-B*07:02 tetramer staining | peptide, CD8+ T cells, COVID-19 convalescent human subjects, HLA-B*07:02 | dose not given, 5 subjects tested |  | tetramer-reactive CD8+ T cell count | 2 |
| TTTATAAAAAACCAATATATGTCTTGACACATGTAAAAAACGTTGTATAATG (dsDNA) | niaR K97A | EMSA | double-stranded DNA, one strand shown |  |  | binding | no binding |
| B5 | Scn2a whole channel (Rattus norvegicus, UniProt P04775) | equilibrium binding | peptide, rat brain synaptosomes |  |  | Kd | 7 nM |

For quick reference, copied from above:
| Substance | target or system | test | system | conditions | how to read | quantity | value |
| --- | --- | --- | --- | --- | --- | --- | --- |
| Dengue virus E protein virion, UV-inactivated (Dengue virus serotype 2) | PLG 376-562 (Homo sapiens, UniProt P00747) | BLI |  |  |  | Kd | 8.8 nM |
| GPC fragment M9C (lymphocytic choriomeningitis virus) | H2-D1/B2m (Mus musculus) | flow cytometry | RMA-S |  |  | half-life | > 1 h |
